Published values from different studies.
Compare with care: the assays were run in different laboratories. ± gives the spread as reported.

N#C[C@@H]1CC(F)(F)CN1C(=O)CNC(=O)c1ccnc2c(NC(=O)[C@H](CCCCNC(=O)CCOCCOCCOCCOCCOCCOCCNC(=O)CN3CCN(CC(=O)[O-])CCN(CC(=O)[O-])CCN(CC(=O)[O-])CC3)NC(=O)CCCc3ccc(I)cc3)cccc12.[177Lu+3] — tissue uptake (mouse, U-87 MG tumour xenograft, salivary gland; 72 h): 0.49 ± 0.5 %ID/g
COc1cccc(OC)c1-c1cc(C(=O)NC2(C(=O)O)C3CC4CC(C3)CC2C4)nn1-c1ccc(C(=O)NCCNC(=O)[C@H](CCCCNC(=O)[C@H](CC(C)C)NC(=O)C2OC2C(=O)O)NC(=O)CN2CCN(CC(=O)[O-])CCN(CC(=O)[O-])CCN(CC(=O)[O-])CC2)cc1C(C)C.[177Lu+3] (mixture of isomers) — tissue uptake (mouse, HT-29 xenograft, kidney; 168 h post injection): 0.92 %ID/g
Cc1cc(C)n(CCN(CCN)CCCCCCNC(=O)[C@@H](N)Cc2c[nH]cn2)n1.[99Tc+].[C-]#[O+].[C-]#[O+].[C-]#[O+] — tissue uptake (BALB/c nude mice, A549 xenograft, brain; intravenous, 24 h): 0.03 ± 0.01 %IA/g
O=C(N/N=C/c1cc[n+](Cc2ccccc2)c2ccccc12)N/N=C/c1cc[n+](Cc2ccccc2)c2ccccc12 — ΔTm (MYC parallel G4 DNA; FRET melting; 1 µM, DNA 0.2 µM): 5.7 ± 0.5 °C
COc1cccc(OC)c1-c1cc(C(=O)NC2(C(=O)O)C3CC4CC(C3)CC2C4)nn1-c1ccc(C(=O)N(C)CCOCCN(C)C(=O)[C@H](CCCCNC(=O)[C@H](CC(C)C)NC(=O)C2OC2C(=O)O)NC(=O)CN2CCN(CC(=O)[O-])CCN(CC(=O)[O-])CCN(CC(=O)[O-])CC2)cc1C(C)C.[177Lu+3] (mixture of isomers) — tissue uptake (mouse, HT-29 xenograft, kidney; 168 h post injection): 2.6 %ID/g
[123I]c1ccc2nc(-c3ccc(-n4ccnn4)nc3)cn2c1 — tissue uptake (Wistar rat, brain; intravenous, 24 h): not detected
CCCC[C@H](NC(=O)CNC(=O)CNC(=O)[C@H](CCCCNC(=O)[C@H](CC(=O)O)NC(=O)C(C)c1ccc(CC(C)C)cc1)NC(=O)CN1CCN(CC(=O)O)CCN(CC(=O)O)CCN(CC(=O)O)CC1)C(=O)N[C@H]1CC(=O)NCCCC[C@@H](C(N)=O)NC(=O)[C@H](Cc2c[nH]c3ccccc23)NC(=O)[C@H](CCCNC(=N)N)NC(=O)[C@@H](Cc2ccccc2)NC(=O)[C@H](Cc2c[nH]cn2)NC1=O (some centres unmarked) [lutetium-177 labelled] — tissue uptake (C57 mouse, intestines; 2 h): 1.96 ± 0.93 %ID
O=S(=O)(c1ccc(-c2ccc3ncnc(Nc4ccc(OCc5cccc(F)c5)cc4)c3c2)cc1)N1CCOCC1 — EC50 (Leishmania major; intracellular amastigote growth, luciferase; RAW264.7 macrophages): 0.47 µM
COc1cccc(OC)c1-c1cc(C(=O)NC2(C(=O)O)C3CC4CC(C3)CC2C4)nn1-c1ccc(C(=O)N(C)CCCN(C)CCCN(C)C(=O)[C@H](CCCCNC(=O)[C@H](CC(C)C)NC(=O)C2OC2C(=O)O)NC(=O)CN2CCN(CC(=O)[O-])CCN(CC(=O)[O-])CCN(CC(=O)[O-])CC2)cc1C(C)C.[177Lu+3] (mixture of isomers) — tissue uptake (mouse HT-29 xenograft, small intestine; 24 h post injection, biodistribution): 0.58 %ID/g
N#C[C@@H]1CC(F)(F)CN1C(=O)CNC(=O)c1ccnc2c(NC(=O)[C@@H](N)CCCCNC(=O)CCOCCOCCOCCOCCOCCOCCNC(=O)CN3CCN(CC(=O)[O-])CCN(CC(=O)[O-])CCN(CC(=O)[O-])CC3)cccc12.[177Lu+3] — tissue uptake (mouse, U-87 MG tumour xenograft, brain; 4 h): 0.03 ± 0.02 %ID/g
O=C(NCC1OC2CCC=CCCC2O1)c1ccc([18F])nc1 (centres unmarked) — tissue uptake (healthy female BALB/c nude mice, spleen; intravenous, 7.4 MBq per mouse, 120 min): 0.8 ± 0.5 %ID/g
Fc1cccc(COc2ccc(Nc3ncnc4ccc(-c5ccc(CN6CCOCC6)cc5)cc34)cc2Cl)c1 — EC50 (Leishmania major; intracellular amastigote growth, luciferase; RAW264.7 macrophages): 5.9 µM
O=C(O)CCCOc1ccc([18F])cc1-c1cc(-c2ccccc2C(F)(F)F)n(-c2ccccc2)n1 — tissue uptake (mouse, muscle; intravenous, dose not given, 360 min): 2.64 ± 0.09 %ID/g
O=C(N/N=C/c1cc[n+](CC2CC2)c2ccccc12)N/N=C/c1cc[n+](CC2CC2)c2ccccc12 — ΔTm (MYC parallel G4 DNA; FRET melting; 1 µM, DNA 0.2 µM, with: duplex DNA competitor 10 µM): 3.6 ± 0.2 °C

For quick reference, copied from above:
N#C[C@@H]1CC(F)(F)CN1C(=O)CNC(=O)c1ccnc2c(NC(=O)[C@@H](N)CCCCNC(=O)CCOCCOCCOCCOCCOCCOCCNC(=O)CN3CCN(CC(=O)[O-])CCN(CC(=O)[O-])CCN(CC(=O)[O-])CC3)cccc12.[177Lu+3] — tissue uptake (mouse, U-87 MG tumour xenograft, brain; 4 h): 0.03 ± 0.02 %ID/g
O=C(NCC1OC2CCC=CCCC2O1)c1ccc([18F])nc1 (centres unmarked) — tissue uptake (healthy female BALB/c nude mice, spleen; intravenous, 7.4 MBq per mouse, 120 min): 0.8 ± 0.5 %ID/g
